Values quoted from earlier work, collected from citations in different studies.
“And” joins repeats or separate records; there may be more than shown. Numbers after ± are the reported error. Converted amounts (≈) assume the structure as drawn.

Cc1c(-c2ccc(O)cc2)n(Cc2ccc(OCCN3CCCCCC3)cc2)c2ccc(O)cc12.Cl — solubility (water): < 1000 µg/mL
CNCCC(Oc1ccc(C(F)(F)F)cc1)c1ccccc1 (centres unmarked) — free Cmax (human): 70.9 nM
COc1cc(N2CCC(N3CCN(C)CC3)CC2)ccc1Nc1ncc(Cl)c(Nc2ccccc2P(C)(C)=O)n1 — AUC(0-inf) (healthy subjects; dose not given, CYP3A induction, single dose, added: rifampin 600 mg once daily): 3040 ng·h/mL
CC(=O)c1c(C)c2cnc(Nc3ccc(N4CCNCC4)cn3)nc2n(C2CCCC2)c1=O — AUC(0-24 h) (beagle dog male; 0.6 mg/kg): 521 ng·h/mL
C[C@@H](Oc1cc(-c2cnn(C3CCNCC3)c2)cnc1N)c1c(Cl)ccc(F)c1Cl — crossover pressure (supercritical CO2): 145 to 165 bar
Cc1cn(-c2cc(NC(=O)c3ccc(C)c(Nc4nccc(-c5cccnc5)n4)c3)cc(C(F)(F)F)c2)cn1 — solubility (FaSSIF; literature value): 0.35 µg/mL (≈ 0.662 µM)
CN1CC(=O)N2[C@H](c3ccc4c(c3)OCO4)c3[nH]c4ccccc4c3C[C@@H]2C1=O — AUC(0-t) (rat; oral, 1 mg/kg): 158 ± 85.7 ng·h/mL
Cn1cncc1-c1c(F)cncc1NC(=O)c1c(N)nn2cc(F)cnc12 — grade ≥3 anaemia incidence (patients with advanced solid tumours; dose not given, monotherapy overall): 36%
C#C[C@]1(O)CC[C@H]2[C@@H]3CCc4cc(O)ccc4[C@H]3CC[C@@]21C — Cmax (plasma; concentration not given, total, steady state): 0.4 nM
Cc1cc(-c2ncc(CC(=O)Nc3ccc(-c4cnccn4)cn3)cc2C)ccn1 — incidence of anorexia (human, advanced cancer; dose not given, phase I trial; relative to: subjects): ~25%
CN1CCC(=C2c3ccccc3CC(=O)c3sccc32)CC1 — crossover pressure (supercritical CO2): 180 to 200 bar
Nc1ccn([C@@H]2O[C@H](CO)[C@@H](O)C2(F)F)c(=O)n1 — grade 3-4 thrombocytopenia incidence (metastatic pancreatic cancer patients; dose not given): 9%
O=NN(CCCl)C(=O)NC1CCCCC1 — solubility (water): < 1000 µg/mL
Nc1cccc2c1C(=O)N(C1CCC(=O)NC1=O)C2=O (centres unmarked) — deep vein thrombosis incidence (relapsed refractory multiple myeloma patients; dose not given, all grades): 1%
O=C(O)C(O)C(O)C(=O)O.c1cnc2cc3c(cc2n1)[C@@H]1CNC[C@H]3C1 — free Cmax (plasma): 0.0154 nM
c1ccc2ccccc2c1 — amount in tissue (zebrafish embryos, whole embryo; 69.08 ng/well, 48 hpf, single exposure): 0.101 ng/well and 0.0951 ng/well and 0.0991 ng/well
CN(C)C(=N)N=C(N)N — unbound fraction (healthy human subjects): 1
CC1(C)C[C@@H]1C(=O)N/C(=C\CCCCSC[C@H](N)C(=O)O)C(=O)O — t_half (human): 0.8 h
COc1ccccc1OCC(O)CN1CCN(CC(=O)Nc2c(C)cccc2C)CC1 (centres unmarked) — elimination half-life (human adults; immediate-release preparation): 1.4 to 1.9 h
O=C(O)[C@H]1O[C@@H](Oc2ccc([C@@H]3[C@@H](CC[C@H](O)c4ccc(F)cc4)C(=O)N3c3ccc(F)cc3)cc2)[C@H](O)[C@@H](O)[C@@H]1O — Tmax (human; oral, 20 mg ezetimibe, given alone, nearest sampling time): ~1.33 h
COCCc1ccc(OCC(O)CNC(C)C)cc1 (centres unmarked) — AUC(0-inf), geometric mean (human; 100 mg): 486 ng·h/mL
Nc1nc(=O)n([C@@H]2C=C[C@H](CO)O2)cc1F — oral bioavailability (human; 20 mg): 32%
Cc1cc(C)c(CNC(=O)c2cc(Cl)c3c(c2C)O[C@@](C)([C@H]2CC[C@H](N(C)C)CC2)O3)c(=O)[nH]1 — AUC(0-inf) (human; oral, 200 mg single dose, geometric mean): 10300 ng·h/mL
O=C(O)CN1CCNCCN(CC(=O)O)CCNCC1 — log KH3 (0.1 M KCl): 4.06
O=C1Nc2ccc(Cl)cc2[C@@](C#CC2CC2)(C(F)(F)F)O1 — Vd (human): 300 to 500 L
C[C@H](CS)C(=O)N1CCC[C@H]1C(=O)O — free Cmax (human): 1460 nM
NC(=O)c1cccnc1 — tolerable upper intake level (adults): 12.5 mg/kg bw/day
CCc1cc(/C(C)=N/OCc2ccc(C3CCCCC3)c(C(F)(F)F)c2)ccc1CN1CC(C(=O)O)C1 — clearance (population PK; human, CYP2C9*1/*2): 3.16 L/h
C[Si](C)(C)O[Si](C)(C)O[Si](C)(C)C — log KOW (slow-stirring method; 1-octanol/water; 25 °C): 6.6
O=C(O)Cc1ccccc1Nc1c(Cl)cccc1Cl — free Cmax (plasma): 35.8 nM
CC(C)(C)c1cc(C(C)(C)C)c(NC(=O)c2c[nH]c3ccccc3c2=O)cc1O — logP octanol/water: 5.68
C[Si](C)(C)O[Si](C)(C)O[Si](C)(C)O[Si](C)(C)C — log KOA (dry 1-octanol/air; 25 °C): 4.64
CCCc1nn(C)c2c(=O)[nH]c(-c3cc(S(=O)(=O)N4CCN(C)CC4)ccc3OCC)nc12 — crossover pressure (solubility in supercritical CO2): 24 MPa
Cc1cn([C@@H]2C[C@@H](O)[C@H](CO)O2)c(=O)[nH]c1=O — oral bioavailability (monkey; 10 mg/kg): 59%
C#C[C@]1(O)CC[C@H]2[C@@H]3CCC4=CC(=NO)CC[C@@H]4[C@H]3CC[C@@]21CC (mixture of isomers) — Cmax, geometric mean (human, fed; 0.215 mg norgestimate, after 7 days dosing): 1.96 ng/mL
CNC(=O)c1c(C)oc2cc(Oc3ncnc4cc(OC)c(OC)cc34)ccc12 — elimination half-life (human): ~42 h
Cc1nc(NC(=O)N2CCC[C@H]2C(N)=O)sc1-c1ccnc(C(C)(C)C(F)(F)F)c1 — dose excreted (human, urine; oral, 400 mg, radiolabelled, fasted; relative to: dose): 14%
O=C(NC[C@H]1CN(c2ccc(N3CCOCC3=O)cc2)C(=O)O1)c1ccc(Cl)s1 — crossover pressure (supercritical CO2): 210 to 240 bar
Fc1ccc([C@@H]2CCNC[C@H]2COc2ccc3c(c2)OCO3)cc1 — free Cmax (human): 14 nM
CC#CC(=O)N[C@H]1CCCN(c2c(F)cc(C(N)=O)c3[nH]c(C)c(C)c23)C1 — AUC(0-last) (human; 10 mg once daily): 100 ng·h/mL
C[C@@H](Oc1cc(-c2cnn(C3CCNCC3)c2)cnc1N)c1c(Cl)ccc(F)c1Cl — diarrhoea incidence (human; concentration not given, clinical): 49%
CN1CCC(COc2cnc(-c3cccc(Cn4nc(-c5cccc(C#N)c5)ccc4=O)c3)nc2)CC1 — solubility (FaSSIF; literature value): 72.8 µg/mL (≈ 148 µM)
CCc1cc(C(N)=S)ccn1 — solubility (water): < 1000 µg/mL
Cn1c(Cn2ccc(C(F)(F)F)c(Oc3cc(Cl)cc(C#N)c3)c2=O)n[nH]c1=O — unbound Cmax (human; 100 mg, anticipated): 700 nM
CS(=O)(=O)c1ccc(C(=O)Nc2ccc(Cl)c(-c3ccccn3)c2)c(Cl)c1 — solubility (water): < 1000 µg/mL
CN(C)C/C=C/C(=O)Nc1cc2c(Nc3ccc(F)c(Cl)c3)ncnc2cc1O[C@H]1CCOC1 — diarrhoea incidence (human; concentration not given, clinical): 96%
Cc1c(C(=O)O)ccc2c3n(nc12)[C@@H]1[C@H](C3)N(CC2CC2)[C@@]2(C(=O)Nc3cc(Cl)ccc32)[C@H]1c1cccc(Cl)c1F — tumor concentration (human glioblastoma patients, tumor tissue; dose not given): 80 to 900 nM
CN[C@H]1CC[C@@H](c2ccc(Cl)c(Cl)c2)c2ccccc21 — lower exposure (human children and adolescents; dose not given, weight-adjusted plasma concentration; relative to: adults): 22%
CCc1nn(CCCN2CCN(c3cccc(Cl)c3)CC2)c(=O)n1CCOc1ccccc1 — Cmax (plasma; concentration not given, total, steady state): 4840 nM
Cc1nsc(-c2nnc3n2CCN(C(=O)c2ccc(F)cc2)[C@@H]3C)n1 — effective half-life (women; oral): 9.6 h
C[C@@H](Oc1cc(-c2cnn(C3CCNCC3)c2)cnc1N)c1c(Cl)ccc(F)c1Cl — increased ALT/AST incidence (treatment-naive ALK-positive NSCLC patients; dose not given, monotherapy, trial): 36%
Cc1cn([C@H]2C=C[C@@H](CO)O2)c(=O)[nH]c1=O — oral bioavailability (monkey; 15 mg/kg): 80 to 86%
Cn1cnc2c(F)c(Nc3ccc(Br)cc3Cl)c(C(=O)NOCCO)cc21 — solubility (water): < 1000 µg/mL
CNCc1cc(-c2ccccc2F)n(S(=O)(=O)c2cccnc2)c1 — AUC(0-inf) (human; 20 mg, single dose): 174 ng·h/mL
CO[C@H]1C(=O)[C@]2(C)[C@@H](OC)C[C@H]3OC[C@@]3(OC(C)=O)[C@H]2[C@H](OC(=O)c2ccccc2)[C@]2(O)C[C@H](OC(=O)[C@H](O)[C@@H](NC(=O)OC(C)(C)C)c3ccccc3)C(C)=C1C2(C)C — solubility (water): < 1000 µg/mL
Nc1nc2cc(-c3ccc4ncc(C(=O)N5CCOCC5)n4c3)ccc2o1 — well tolerated dose (monkey): ≤ 50 mg/kg/day
CN(C)C(=O)c1cc2cnc(Nc3ccc(N4CCNCC4)cn3)nc2n1C1CCCC1 — increase in AUCinf (human; 400 mg single dose, added: ritonavir 100 mg twice daily for 14 days; relative to: compound alone): 3.2 fold
CCN1CCN(Cc2ccc(Nc3ncc(F)c(-c4cc(F)c5nc(C)n(C(C)C)c5c4)n3)nc2)CC1 — parent share of plasma drug material (healthy human, plasma; 150 mg single dose, added: [14C]compound): 34%
Nc1nc2c(ncn2COCCO)c(=O)[nH]1 — oral bioavailability (human; 800 mg): 10 to 20%

For quick reference, copied from above:
CNCCC(Oc1ccc(C(F)(F)F)cc1)c1ccccc1 (centres unmarked) — free Cmax (human): 70.9 nM
CO[C@H]1C(=O)[C@]2(C)[C@@H](OC)C[C@H]3OC[C@@]3(OC(C)=O)[C@H]2[C@H](OC(=O)c2ccccc2)[C@]2(O)C[C@H](OC(=O)[C@H](O)[C@@H](NC(=O)OC(C)(C)C)c3ccccc3)C(C)=C1C2(C)C — solubility (water): < 1000 µg/mL
O=NN(CCCl)C(=O)NC1CCCCC1 — solubility (water): < 1000 µg/mL
C[Si](C)(C)O[Si](C)(C)O[Si](C)(C)C — log KOW (slow-stirring method; 1-octanol/water; 25 °C): 6.6
COCCc1ccc(OCC(O)CNC(C)C)cc1 (centres unmarked) — AUC(0-inf), geometric mean (human; 100 mg): 486 ng·h/mL
